Measured values collected from several papers.
Compare with care: the assays were run in different laboratories.

Structure (SMILES) | organism | assay | test system | setting | MIC
CC(C)(C)OCC1NC(=O)C(C(=O)NC(C(=O)NC2C(=O)N3C2SC(C)(C)C3C(=O)O)c2ccccc2)=C1O (centres unmarked) | Escherichia coli | broth microdilution | Keio mutant JW0146-2 | 18 h, ferric hydroxamate uptake gene | 50 µg/mL
C[C@H](NC(=O)[C@H](CCCNC(=N)N)NC(=O)[C@H](Cc1c[nH]c2ccccc12)NC(=O)[C@H](CCCNC(=N)N)NC(=O)[C@H](Cc1c[nH]c2ccccc12)NC(=O)[C@H](Cc1c[nH]c2ccccc12)NC(=O)[C@H](Cc1c[nH]c2ccccc12)NC(=O)[C@H](CCCNC(=N)N)NC(=O)[C@H](Cc1c[nH]c2ccccc12)NC(=O)[C@@H](N)CCCNC(=N)N)C(N)=O | Candida albicans | broth microdilution | CGMCC 2.209, RPMI 1640-MOPS | 48 h, 30 °C, added: KCl 4.5 mM | 4 µM
CC[C@H](C)[C@H](NC(=O)[C@H](CCCCN)NC(=O)[C@@H](NC(=O)[C@H](Cc1ccc(O)cc1)NC(=O)[C@H](CCCCN)NC(=O)[C@H](CCCCN)NC(=O)CNC(=O)[C@H](CCCCN)NC(=O)[C@@H](NC(=O)[C@H](C)NC(=O)[C@H](CC(C)C)NC(=O)[C@H](Cc1c[nH]c2ccccc12)NC(=O)CNC(=O)[C@@H](NC(=O)[C@H](Cc1ccccc1)NC(=O)[C@H](CCCCN)NC(=O)[C@H](CC(C)C)NC(=O)[C@H](Cc1ccccc1)NC(=O)[C@H](C)NC(=O)CNC(=O)[C@@H](N)CCSC)C(C)C)[C@@H](C)O)C(C)C)C(=O)N[C@@H](C)C(=O)N[C@@H](Cc1c[nH]c2ccccc12)C(=O)N[C@@H](CC(=O)O)C(=O)N[C@@H](Cc1c[nH]cn1)C(=O)N[C@@H](CCCCN)C(=O)NCC(=O)N[C@H](C(=O)N[C@H](C(=O)N[C@@H](CCSC)C(=O)N[C@@H](CCCCN)C(=O)N[C@@H](Cc1c[nH]c2ccccc12)C(=O)N[C@@H](CC(C)C)C(=O)N[C@@H](CC(N)=O)C(=O)N[C@@H](C)C(=O)NCC(=O)N[C@@H](CCC(N)=O)C(=O)N[C@H](C(=O)N[C@@H](Cc1ccccc1)C(=O)N[C@H](C(=O)N[C@@H](Cc1c[nH]c2ccccc12)C(=O)N[C@H](C(=O)N[C@@H](Cc1ccc(O)cc1)C(=O)N[C@@H](CCC(=O)O)C(=O)N[C@@H](CCC(N)=O)C(=O)N[C@H](C(=O)N[C@@H](CCCCN)C(=O)N[C@@H](CCCCN)C(=O)N[C@@H](CC(C)C)C(=O)N[C@@H](Cc1c[nH]c2ccccc12)C(=O)N[C@H](C(=O)O)[C@@H](C)O)[C@@H](C)CC)C(C)C)[C@@H](C)O)[C@@H](C)O)[C@@H](C)CC)[C@@H](C)O | Streptococcus iniae |  | ATCC 29178 | 37 °C, non-formylated synthetic | 7.8 µg/mL
CC[C@H](C)[C@H](NC(=O)[C@H](CC(N)=O)NC(=O)[C@H](Cc1ccccc1)NC(=O)[C@H](CCCNC(=N)N)NC(=O)[C@H](CCCNC(=N)N)NC(=O)[C@@H](N)CCCCN)C(=O)N[C@@H](CCCCN)C(=O)N[C@@H](CC(C)C)C(=O)N[C@@H](Cc1c[nH]c2ccccc12)C(=O)N[C@@H](CCCCN)C(=O)N[C@H](C(=O)N[C@@H](Cc1ccccc1)C(=O)O)[C@@H](C)O | Micrococcus luteus |  | NCTC 2665 |  | 25 µg/mL
CC(C)C[C@H](NC(=O)[C@H](C)NC(=O)[C@@H](NC(=O)[C@H](CCCNC(=N)N)NC(=O)[C@H](CC(C)C)NC(=O)[C@H](Cc1c[nH]c2ccccc12)NC(=O)[C@@H]1CCCN1C(=O)[C@@H](N)CCCCN)C(C)C)C(=O)N[C@@H](CS)C(=O)N1CCC[C@H]1C(=O)NCC(=O)O | Staphylococcus chromogenes | broth microdilution | G0791A |  | 64 µM
CC1(C)SC2C(NC(=O)C(NC(=O)C3=C(O)C(c4ccccc4)NC3=O)c3ccccc3)C(=O)N2C1C(=O)O (centres unmarked) | Escherichia coli | broth microdilution | isolate IU, CTX-M-14, TEM-1 | added: clavulanic acid 6 µg/mL | > 200 µg/mL
N=C(N)NCCC[C@H](NC(=O)[C@H](Cc1c[nH]c2ccccc12)NC(=O)[C@H](CCCNC(=N)N)NC(=O)[C@H](Cc1c[nH]c2ccccc12)NC(=O)[C@H](Cc1c[nH]c2ccccc12)NC(=O)[C@H](Cc1c[nH]c2ccccc12)NC(=O)[C@H](CCCNC(=N)N)NC(=O)[C@H](Cc1c[nH]c2ccccc12)NC(=O)[C@@H](N)CCCNC(=N)N)C(=O)N[C@@H](Cc1ccccc1)C(N)=O | Candida albicans | broth microdilution | 56214, RPMI 1640-MOPS | 48 h, 30 °C | 8 µM
O=C(CO/N=c1\cc2n(-c3ccc(Cl)cc3)c3ccccc3nc-2cc1Nc1ccc(Cl)cc1)NCc1ccc2c(c1)CCO2 | Neisseria gonorrhoeae | bacterial growth | 700825, streptomycin-resistant | 24 h | > 30 µM
CC1(C)SC2C(NC(=O)C(NC(=O)C3=C(O)C4(CC4)NC3=O)c3ccccc3)C(=O)N2C1C(=O)O (centres unmarked) | Escherichia coli | broth microdilution | Keio mutant JW0587-1 | 18 h, enterobactin-related gene | 25 µg/mL
CC(C)C[C@@H](NC(=O)[C@H](C)NC(=O)CNC(=O)[C@@H](NC=O)C(C)C)C(=O)N[C@@H](C)C(=O)N[C@@H](C(=O)N[C@H](C(=O)N[C@@H](C(=O)N[C@@H](Cc1c[nH]c2ccccc12)C(=O)N[C@H](CC(C)C)C(=O)N[C@@H](Cc1ccc2[nH]ccc2c1)C(=O)N[C@H](CC(C)C)C(=O)N[C@@H](Cc1c[nH]c2ccccc12)C(=O)N[C@@H](C(=O)N[C@@H](Cc1c[nH]c2ccccc12)C(=O)NCCO)C(C)C)[C@H](C)O)C(C)C)C(C)C | Streptococcus agalactiae | broth microdilution | JCM 5671 |  | 4.3 µM
CC[C@H](C)[C@H](NC(=O)[C@H](CCCNC(=N)N)NC(=O)[C@H](Cc1c[nH]c2ccccc12)NC(=O)[C@H](CCCNC(=N)N)NC(=O)[C@H](Cc1c[nH]c2ccccc12)NC(=O)[C@H](Cc1c[nH]c2ccccc12)NC(=O)[C@H](Cc1c[nH]c2ccccc12)NC(=O)[C@H](CCCNC(=N)N)NC(=O)[C@H](Cc1c[nH]c2ccccc12)NC(=O)[C@H](CCCNC(=N)N)NC(=O)CN)C(N)=O | Candida albicans | broth microdilution | CGMCC 2.209, RPMI 1640-MOPS | 48 h, 30 °C, added: CaCl2 2 mM | 16 µM
C[C@@H](O)[C@H]1C(=O)N2C(C(=O)O)=C(SCCN=CN)C[C@H]12 | Klebsiella pneumoniae |  | K3 | after induction, added: ceftazidime-avibactam 4/1 | 64 µg/mL
Cc1c2ccncc2c(C)c2c1[nH]c1ccccc12 | Candidozyma auris | inhibitor | 278 | 24 h | 128 µg/mL
CC(C)C[C@H](NC(=O)[C@H](CCCNC(=N)N)NC(=O)[C@H](Cc1c[nH]c2ccccc12)NC(=O)[C@H](CCCNC(=N)N)NC(=O)[C@H](Cc1c[nH]c2ccccc12)NC(=O)[C@H](Cc1c[nH]c2ccccc12)NC(=O)[C@H](Cc1c[nH]c2ccccc12)NC(=O)[C@H](CCCNC(=N)N)NC(=O)[C@H](Cc1c[nH]c2ccccc12)NC(=O)[C@@H](N)CCCNC(=N)N)C(N)=O | Candida tropicalis | broth microdilution | CGMCC 2.192, RPMI 1640-MOPS | 48 h, 30 °C | 4 µM
O=C(O)CO/N=c1\cc2n(-c3ccc(Cl)cc3)c3ccccc3nc-2cc1Nc1ccc(Cl)cc1 | Neisseria gonorrhoeae | bacterial growth | 700825, streptomycin-resistant | 24 h | 3.75 µM
CC(C)(C)Oc1ccc(CC2NC(=O)C(C(=O)NC(C(=O)NC3C(=O)N4C3SC(C)(C)C4C(=O)O)c3ccccc3)=C2O)cc1 (centres unmarked) | Escherichia coli | broth microdilution | Keio mutant JW5086-3 | 18 h, ferrienterobactin permease gene | 25 µg/mL
CCOC(=O)CNC(=O)CO/N=c1\cc2n(-c3ccc(Cl)cc3)c3ccccc3nc-2cc1Nc1ccc(Cl)cc1 | Neisseria gonorrhoeae | bacterial growth | 1130991, multidrug-resistant | 24 h | > 30 µM
CC1(C)SC2C(NC(=O)C(NC(=O)C3=C(O)C(Cc4ccc(O)cc4)NC3=O)c3ccccc3)C(=O)N2C1C(=O)O (centres unmarked) | Escherichia coli | broth microdilution | JW0790-2 fiu deletion mutant | ferric iron uptake gene | 25 µg/mL
Clc1ccc(Nc2cc3nc4ccccc4n(-c4ccc(Cl)cc4)c-3c/c2=N\OCc2ccccc2)cc1 | Neisseria gonorrhoeae | bacterial growth | 700825, streptomycin-resistant | 24 h | > 30 µM
N=C(N)NCCC[C@H](NC(=O)CN)C(=O)N[C@@H](Cc1c[nH]c2ccccc12)C(=O)N[C@@H](CCCNC(=N)N)C(=O)N[C@@H](Cc1c[nH]c2ccccc12)C(=O)N[C@@H](Cc1c[nH]c2ccccc12)C(=O)N[C@@H](Cc1c[nH]c2ccccc12)C(=O)N[C@@H](CCCNC(=N)N)C(=O)N[C@@H](Cc1c[nH]c2ccccc12)C(=O)N[C@@H](CCCNC(=N)N)C(=O)N[C@@H](Cc1c[nH]c2ccccc12)C(N)=O | Candida albicans | broth microdilution | CGMCC 2.209, RPMI 1640-MOPS | 48 h, 30 °C, added: NaCl 150 mM | 32 µM
CS(=O)(=O)Nc1ncn(-c2cc(F)c(COc3ccc(OS(=O)(=O)F)cc3)c(F)c2)n1 | Mycobacterium africanum |  |  |  | 0.02 µM
CC(C)C[C@H](NC(=O)[C@H](CCCCN)NC(=O)[C@H](CO)NC(=O)[C@H](CC(C)C)NC(=O)[C@H](CC(C)C)NC(=O)CNC(=O)[C@H](CC(C)C)NC(=O)[C@H](CCCCN)NC(=O)[C@H](CC(C)C)NC(=O)[C@H](CC(C)C)NC(=O)[C@H](CC(C)C)NC(=O)CNC(=O)[C@H](CO)NC(=O)[C@H](Cc1c[nH]c2ccccc12)NC(=O)[C@@H](N)CCCCN)C(N)=O | Candida tropicalis | broth microdilution | ATCC 13803 | 44 h, 37 °C | > 8 µM
N=C(N)NCCC[C@H](NC(=O)[C@H](Cc1c[nH]c2ccccc12)NC(=O)[C@H](CCCNC(=N)N)NC(=O)[C@H](Cc1c[nH]c2ccccc12)NC(=O)[C@H](Cc1c[nH]c2ccccc12)NC(=O)[C@H](Cc1c[nH]c2ccccc12)NC(=O)[C@H](CCCNC(=N)N)NC(=O)[C@H](Cc1c[nH]c2ccccc12)NC(=O)[C@H](CCCNC(=N)N)NC(=O)CN)C(N)=O | Candida albicans | broth microdilution | CGMCC 2.209, RPMI 1640-MOPS | 48 h, 30 °C | 4 µM
N=C(N)c1ccc(OCc2ccc(Br)cc2COc2ccc(C(=N)N)cc2)cc1 | Escherichia coli |  | mcr-1 | 20 h, compound alone | > 100 µg/mL
CC(C)[C@H](NC(=O)[C@H](CCCNC(=N)N)NC(=O)[C@H](Cc1c[nH]c2ccccc12)NC(=O)[C@H](CCCNC(=N)N)NC(=O)[C@H](Cc1c[nH]c2ccccc12)NC(=O)[C@H](Cc1c[nH]c2ccccc12)NC(=O)[C@H](Cc1c[nH]c2ccccc12)NC(=O)[C@H](CCCNC(=N)N)NC(=O)[C@H](Cc1c[nH]c2ccccc12)NC(=O)[C@@H](N)CCCNC(=N)N)C(N)=O | Candida albicans | broth microdilution | CGMCC 2.209, RPMI 1640-MOPS | 48 h, 30 °C, added: FeCl3 4 µM | 32 µM
CC1(C)SC2C(NC(=O)C(NC(=O)C3=C(O)C(Cc4ccccc4)NC3=O)c3ccccc3)C(=O)N2C1C(=O)O (centres unmarked) | Escherichia coli | broth microdilution | Keio mutant JW5086-3 | 18 h, ferrienterobactin permease gene | 12.5 µg/mL
